Measured values pooled from the literature.
Parts stem from different laboratories: compare values within a part only. Changes are numbered by the printed parent chain.

Set 1
Target: UBE2S UBC core domain (UniProt Q16763)
Technique: yeast two-hybrid
Medium: yeast
Notes: mostly zero background
Baseline: not given
Reading: higher = stronger interaction
B1: NHLRC1 RING domain (UniProt Q6VVB1); chain MREAEISLLECKVCFEKFGHRQQRRPRNLSCGHVVCLACVAALAHPRTLALECPFCRRACRGCDTSD
B2: TRIM68 RING domain (UniProt Q6AZZ1); chain LVEAIVEEVACPICMTFLREPMSIDCGHSFCHSCLSGLWEIPGESQNWGYTCPLCRAPVQPRNLRP
B3: RFPL3 RING domain (UniProt O75679); chain MAALFQEASSCPVCSDYLEKPMSLECGCTVCLKCINSLQKEPHGEDLLCCCCSMVSQRNKIRP
B4: RNF7 RING domain (UniProt Q9UBF6); chain AICRVQVMDACLRCQAENKQEDCVVVWGECNHSFHNCCMSLWVKQNNRCPLCQQDWVVQRIGK
B5: TRIM2 RING domain (UniProt Q9C040); chain VRQIDKQFLICSICLERYKNPKVLPCLHTFCERCLQNYIPAHSLTLSCPVCRQTSILPEKGV
B6: RNF130 RING domain (UniProt Q86XS8); chain DKETDPDFDHCAVCIESYKQNDVVRILPCKHVFHKSCVDPWLSEHCTCPMCKLNILKALGIV
B7: RNF115 RING domain (UniProt Q9Y4L5); chain TQEQVDMGLECPVCKEDYTVEEEVRQLPCNHFFHSSCIVPWLELHDTCPVCRKSLNGEDSTR
Molecule | lacZ reporter activity
B1 (NHLRC1 RING domain) | 0
B2 (TRIM68 RING domain) | 0
B3 (RFPL3 RING domain) | 0
B4 (RNF7 RING domain) | 0
B5 (TRIM2 RING domain) | 0
GSEEEEIPFRCFICRQAFQNPVVTKCRHYFCESCALEHFRATPRCYICDQPTGGIFNPA (RNF113B RING domain (UniProt Q8IZP6)) | 0
B6 (RNF130 RING domain) | 0
B7 (RNF115 RING domain) | 0

Set 2
Target: Interferon regulatory factor 5, full length, phosphomimetic (IRF5, Homo sapiens, UniProt Q13568-2, residues 1-514, K96S/S451D/S453D/S456D/S462D)
Technique: protein-binding microarray
Form: double-stranded DNA, one strand shown
Medium: in vitro
Tested at: 250 nM
Notes: 60-bp whole probe
With: salmon DNA 0.4 mg/ml
Baseline: random background probes
Reading: higher = stronger binding
All sequences stand within: GCCTAGCAC … GTCTTGATTCGCTTGACGCTGCTG
Strand | log fluorescence
GACGATCTCAGTATCGGGACGTGCTAG | 1.73 z-score
GATGGTTCCCTTTTCCTGACGTGCTAG | 0.387 z-score
TTAGATTTCGGGACTGGATAAGTGCTA | 2.68 z-score
TTAGGTATGGACTTTCGGTTAGTGCTA | 9.31 z-score
TTAGATATCGGGACTGGATGAGTGCTA | 1.14 z-score
TTAGGTCTCGGACTGGGGTAGTGCTAG | -0.356 z-score
GACGGTTCCGGTTCCGGGACGTGCTAG | 0.852 z-score
GCGATCCTCTCACCTCAGCCTGTGCTA | -0.0633 z-score
ATTGCTTTCTCTTTCACTACGTGCTAG | 7.53 z-score
GAAGGTATCGGGTATCGGGACGTGCTA | 2.86 z-score
GACGGTTTCGGTTCCGTGACGTGCTAG | 8.56 z-score
TTAGGTCTCGCTTTCGGTTAGTGCTAG | 8.66 z-score
ATAGAACTGAGTATCGATTAGTGCTAG | 7.09 z-score
TTAGTTTCCCTTTTCCTTTAGTGCTAG | 4.35 z-score
AACGGTCTCGGTTTCGGGACGTGCTAG | 3.71 z-score
GGTGCTGTTTACATAGTTCTGTGCTAG | -0.528 z-score
TCACTTCTGGTCTTCTGACTGTGCTAG | 0.501 z-score
GACGGTATCGCCTTTCGGGACGTGCTA | 2.52 z-score
TTAGGACCGGACTATCGGTTAGTGCTA | 6.17 z-score
TTAGAACTGAGTTACGATTAGTGCTAG | 0.23 z-score
GAAAAATCTGGAACTAACAGGTGCTAG | 0.475 z-score
TTAGTACTGGGGTTTCGGTTAGTGCTA | 6.87 z-score
TACTACATATCACCTCAATCGTGCTAG | 0.754 z-score
TTAGGTATCGGGTAACGGTTAGTGCTA | 4.44 z-score
GACGGTATCGGGTTGCGGGACGTGCTA | 2.63 z-score

Set 3
Target: ATP-dependent RNA helicase DDX3X, helicase core (DDX3X, Homo sapiens, UniProt O00571, residues 132-607)
Technique: RNA Bind-n-Seq
Form: RNA
Medium: in vitro
Tested at: 90 pmol
Notes: 4-mer, random 30-nt RNA, single round
With: 3 µM iPr-DMDA-PatA, 2 mM ADP, 2 mM phosphate
Baseline: input library
Reading: higher = stronger binding
Strand | 4-mer enrichment
UCAG | 0.974 fold
CGCU | 0.722 fold
GCUU | 0.714 fold
CUCA | 0.996 fold
CUCC | 1.06 fold
CUGC | 0.74 fold
UGUA | 1.08 fold
ACAA | 1.31 fold
GAAA | 1.62 fold
GCGU | 0.834 fold
CACG | 0.957 fold

Set 4
Target: Ras GTPase-activating protein-binding protein 1, full length (G3BP1, Homo sapiens, UniProt Q13283)
Technique: RNA Bind-n-Seq
Form: RNA
Medium: in vitro
Tested at: 200 nM
Notes: whole 134-nt RNA, ends assumed
With: 150 mM KCl
Baseline: input library
Reading: higher = stronger binding
All sequences stand within: GGGAGUUCUACAGUCCGACGAUC … UGGAAUUCUCGGGUGUCAAGG
Strand | log2 enrichment
AGUCCUGUGCUACACAUCGUAUGUACCGAAUCGGGAAAGGGAAAAAAAGGGAAAGGGAAAGUAUUAUGUUACGCCGUUCGGAUCUGCACU | -0.424
GUCCUGUGCUACACAUCGUAUGUACCGAAUCGGAAAAAAAGGUUUUUUUGGUUUUUGGAAAGUAUUAUGUUACGCCGUUCGGAUCUGCAC | -1.63
AGUCCUGUGCUACACAUCGUAUGUACCGAAUCGGUUUUUUGGUUUUUUGGUUUUUUGGAAAGUAUUAUGUUACGCCGUUCGGAUCUGCAC | -1.43
CACAGACAACACGCACCCACACAGACACAGAGGGAAGGAGUUGGGAUGGGGACAGGGUGCACAGCAGGGCGGGGUAGGACCCCAGCCCCU | 1.67
UGGCCCUGGUGGCAUGCGGGGAGGAAGAGGUGGCCUCAUGGAUCGUGGUGGUCCCGGUGGACUGUUCAGAGGUGGCCGUGGUGGAGACAG | 0.302
CUCAAGUCCUGUGCUACACAUCGUAUGUACCGAAUCGGGGCGGGCGGGGCGGGAAAGUAUUAUGUUACGCCGUUCGGAUCUGCACUUCCA | 1.69
AAGUCCUGUGCUACACAUCGUAUGUACCGAAUCGGCCCCGGGCCCCGGGGCCCCGGAAAGUAUUAUGUUACGCCGUUCGGAUCUGCACUU | -0.129
UCUUGUAUGACUUAACCCCUGUUUCUAAUACAGGGGCCGCUCUCCUCAGCCUCCUGCUGAAGAGGAUGAAGAUGACUUUGAUGAUACCCU | 0.399
CUGUGCUACACAUCGUAUGUACCGAAUCGGGGAAAAAAAGGGGAAAAAAAGGGGUUUGGGGAAAGUAUUAUGUUACGCCGUUCGGAUCUG | -0.402
UGUACUCGGAAGUUUCACUUACCAUCGACCACUCUCUGAUUCCGGAGGAGAGGCUCUCGCCCACCCCAUCCAUGCAGGAUGGGCUCGACC | 0.0211

Set 5
Target: ABI1, truncated, D143A, DHFR fusion (Arabidopsis thaliana)
Technique: DHFR PCA, deep sequencing
Medium: yeast
Notes: methotrexate growth selection, single substitutions
With: (+)-ABA 2500 µM
Baseline: wild-type fitted maximum
Reading: higher = stronger binding
Starting sequence: PYL1, truncated, DHFR fusion (Arabidopsis thaliana); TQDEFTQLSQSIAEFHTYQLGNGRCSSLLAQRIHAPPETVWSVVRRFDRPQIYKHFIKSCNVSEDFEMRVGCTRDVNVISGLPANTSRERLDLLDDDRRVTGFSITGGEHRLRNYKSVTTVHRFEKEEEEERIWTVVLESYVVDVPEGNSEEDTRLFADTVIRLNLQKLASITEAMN; partner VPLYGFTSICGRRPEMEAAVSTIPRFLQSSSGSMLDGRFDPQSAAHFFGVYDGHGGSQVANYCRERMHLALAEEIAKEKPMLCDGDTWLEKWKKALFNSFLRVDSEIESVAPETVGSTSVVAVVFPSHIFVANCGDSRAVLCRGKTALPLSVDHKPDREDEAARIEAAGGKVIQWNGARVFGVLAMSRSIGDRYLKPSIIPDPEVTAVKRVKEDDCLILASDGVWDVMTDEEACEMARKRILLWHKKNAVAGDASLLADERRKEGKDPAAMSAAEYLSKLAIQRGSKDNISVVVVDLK
Variant | relative binding score
V76I | 96%
V100Y | 84.5%
G107Y | 83.3%
S80T | 95.7%
I105D | 8.21%
G107W | 79.8%
V78M | 91.1%
R45K | 101%
F66A | 97.4%
A170N | 85.4%
N149V | 76.6%
T17G | 95.8%
Q10Y | 91.3%
R111D | 68%
V161M | 91.8%

Set 6
Target: CCNA2, cyclin fold, Cln2 fusion (human)
Technique: yeast growth competition, sequencing
Medium: yeast
Notes: strong parent motif
Baseline: not given
Reading: higher = stronger binding
Starting sequence: CDC25A docking peptide (human); PPHRRRLLFACSP
Variant | normalised enrichment score
R4N | 2.13
R4T | 1.55
P13T | 2.74
R4G | 1.73
R5N | -0.102
C11W | 2.04
S12E | 3.63
P1T | 2.24
C11P | 3.48
R4D | 0.707
P13G | 2.97
L8S | 2.88
L8W | 2.06
R4Y | 1.66
C11F | 2.19

Set 7
Target: Protein C-ets-1 (ETS1, Homo sapiens, UniProt P14921, residues 1-441, K379A, full length assumed)
Technique: protein-binding microarray
Form: double-stranded DNA, one strand shown
Medium: in vitro
Tested at: not given
Notes: k-mer, scored over probes, only values ≥0.25
Reading: higher = stronger binding
Strand | E-score
GGGCGGAA | 0.322
CACCCCGG | 0.26
AAGCCGGA | 0.277
ACCCTCCC | 0.251
CCGGATAG | 0.255
ATGACCGG | 0.328
CGGAACGC | 0.292
ACCGACAA | 0.431
GTAATTAC | 0.3
TACTACGA | 0.252
TCCCGGAA | 0.364
CGGTTAAC | 0.296
CATGCCCG | 0.259
ATATTAAC | 0.261

Set 8
Target: Sal-like protein 4, full length isoform B (SALL4, Homo sapiens, UniProt Q9UJQ4-2, residues 1-616)
Technique: universal PBM
Form: double-stranded DNA, one strand shown
Medium: in vitro
Tested at: not given
Notes: 8-mer, flanks averaged, mean of replicates
Reading: higher = stronger binding
Strand | E-score
GACTACGA | -0.14
TAAGTAAA | 0.276
TGACCCCA | -0.194
CCTCAGTA | -0.0891
ACGCAGAA | -0.0633
ACTCTGCC | -0.0679
ACGACCGC | -0.261
AGTCAACT | -0.0736
ATAGTTGG | 0.0927
ATGCGGGG | -0.155
GCTCCTAA | -0.161
GCACCACA | -0.115
ACTCGCGG | -0.251
AAACGTTC | 0.0805
GGACCTAC | -0.121
GAAGGGGA | -0.202
CTACAGCC | -0.142
CCGCCAGG | -0.375
CGAGCGTA | 0.0498
CTGCCTTC | -0.171
AGCCGGTG | -0.333
CTGTCTCC | -0.248
GAGACCCA | -0.22
TACTACCA | 0.0746
AACAGAGG | -0.13

A few entries again (set 2):
Strand | log fluorescence
TTAGGACCGGACTATCGGTTAGTGCTA | 6.17 z-score
ATAGAACTGAGTATCGATTAGTGCTAG | 7.09 z-score
TTAGGTCTCGCTTTCGGTTAGTGCTAG | 8.66 z-score
TTAGGTCTCGGACTGGGGTAGTGCTAG | -0.356 z-score
TTAGGTATGGACTTTCGGTTAGTGCTA | 9.31 z-score
TACTACATATCACCTCAATCGTGCTAG | 0.754 z-score
GAAGGTATCGGGTATCGGGACGTGCTA | 2.86 z-score
ATTGCTTTCTCTTTCACTACGTGCTAG | 7.53 z-score
